Measurements of several laboratories.
Lines come from different studies, so protocols differ. Several values in a cell are separate wells, animals, samples, runs or records. ± gives the spread as reported. Converted amounts (≈) assume the structure as drawn.

C[C@H](O)[C@@H](NC(=O)[C@H]1CCCN1C(=O)[C@@H](CCCCN)NC(=O)[C@@H](CO)NC(=O)[C@@H](Cc1ccc(O)cc1)NC(=O)[C@@H](CC(N)=O)NC(=O)CCOCCOCCOCCNC(=O)CN1CCN(CC(=O)O)CCN(CC(=O)O)CCN(CC(=O)O)CC1)C(=O)N[C@H](CC(=O)O)C(=O)N[C@H](CCCNC(=N)N)C(=O)N[C@H](CCC(N)=O)C(=O)N[C@H](Cc1ccc(O)cc1)C(=O)N[C@H](Cc1c[nH]cn1)C(=O)N[C@H](Cc1ccccc1)C(N)=O [copper-64 labelled]
tissue uptake (ex vivo gamma counting; C57BL/6J mouse, male, normal, testis; intravenous, 1.85 MBq, 80 min): 0.14 ± 0.05 %ID/g

CCCC[C@H]1C(=O)N(C)[C@@H](CCCC)C(=O)N[C@@H](CCCNC(=O)CN2CCN(CC(=O)O)CCN(CC(=O)O)CCN(CC(=O)O)CC2)C(=O)N[C@H](C(=O)NCC(N)=O)CSCC(=O)N[C@@H](Cc2ccc(O)cc2)C(=O)N(C)[C@@H](C)C(=O)N[C@@H](CC(N)=O)C(=O)N2CCC[C@H]2C(=O)N[C@@H](Cc2c[nH]cn2)C(=O)N[C@@H](CC(C)C)C(=O)N(C)CC(=O)N[C@@H](Cc2c[nH]c3ccccc23)C(=O)N[C@@H](CO)C(=O)N[C@@H](Cc2c[nH]c3ccccc23)C(=O)N1C [gallium-68 labelled]
tissue uptake (NOD/SCID mice with CHO-hPD-L1 xenograft, pancreas; 60 min post injection): 4.97 ± 2.26 %ID/g

C=C/C=C/C[C@@H](C)[C@@H](O)[C@H]1C(=O)N[C@@H](CC)C(=O)N(C)CC(=O)N(C)[C@@H](CC(C)C)C(=O)N[C@@H](C(C)C)C(=O)N(C)[C@@H](CC(C)C)C(=O)N[C@@H](C)C(=O)N[C@H](C)C(=O)N(C)[C@@H](CC(C)C)C(=O)N(C)[C@@H](CC(C)C)C(=O)N(C)[C@@H](C(C)C)C(=O)N1C
body weight (male Wistar Kyoto rat; intraperitoneal, 0.5 mg/kg/day, day 28, at sacrifice): 310 ± 10 g

CCN1CC2(COC)C(O)CC(OC)C34C5CC6(O)C(OC)C(O)C(O)(C5C6OC(=O)c5ccccc5)C(C(OC)C23)C14 (centres unmarked)
MRT(0-t) (Sprague-Dawley rat, plasma; oral, dose not given, in PCW extract): 5.88 ± 1.58 h

CN1Cc2cc(Cl)ccc2-n2c(nnc2C2CCN(c3cccc(F)n3)CC2)C1
concentration (Sprague-Dawley rats male, brainstem; intravenous, 0.03 mg/kg, 5 min): 8.98 ± 1.6 ng/mL

NC1CCN(C(=O)Oc2ccc(C3CCCC4(C3)OOC3(O4)C4CC5CC(C4)CC3C5)cc2)CC1 (racemic)
parent remaining (citrate buffer; 24 h, anaerobic, with: 50 mM ferrous iron): > 50% and 67%

CSCC[C@H](N)C(=O)N[C@@H](C)C(=O)N[C@@H](Cc1c[nH]c2ccccc12)C(=O)N[C@@H](Cc1c[nH]cn1)C(=O)N[C@@H](CC(=O)O)C(=O)N[C@@H](CC(=O)O)C(=O)N[C@@H](CCC(=O)O)C(=O)N[C@@H](CCC(=O)O)C(=O)N[C@@H](Cc1ccccc1)C(=O)N[C@@H](C)C(=O)N[C@@H](CCCNC(=N)N)C(=O)N[C@@H](CCCNC(=N)N)C(=O)N[C@@H](CCCNC(=N)N)C(=O)N[C@@H](CCCNC(=N)N)C(=O)NCCCCCC(=O)NCCCCC(NC(=O)CCCCCNC(=O)[C@H](CCCNC(=N)N)NC(=O)[C@H](CCCNC(=N)N)NC(=O)[C@H](CCCNC(=N)N)NC(=O)[C@H](CCCNC(=N)N)NC(=O)[C@H](C)NC(=O)[C@H](Cc1ccccc1)NC(=O)[C@H](CCC(=O)O)NC(=O)[C@H](CCC(=O)O)NC(=O)[C@H](CC(=O)O)NC(=O)[C@H](CC(=O)O)NC(=O)[C@H](Cc1c[nH]cn1)NC(=O)[C@H](Cc1c[nH]c2ccccc12)NC(=O)[C@H](C)NC(=O)[C@@H](N)CCSC)C(=O)NCCCCC(NC(=O)C(CCCCNC(=O)CCCCCNC(=O)[C@H](CCCNC(=N)N)NC(=O)[C@H](CCCNC(=N)N)NC(=O)[C@H](CCCNC(=N)N)NC(=O)[C@H](CCCNC(=N)N)NC(=O)[C@H](C)NC(=O)[C@H](Cc1ccccc1)NC(=O)[C@H](CCC(=O)O)NC(=O)[C@H](CCC(=O)O)NC(=O)[C@H](CC(=O)O)NC(=O)[C@H](CC(=O)O)NC(=O)[C@H](Cc1c[nH]cn1)NC(=O)[C@H](Cc1c[nH]c2ccccc12)NC(=O)[C@H](C)NC(=O)[C@@H](N)CCSC)NC(=O)CCCCCNC(=O)[C@H](CCCNC(=N)N)NC(=O)[C@H](CCCNC(=N)N)NC(=O)[C@H](CCCNC(=N)N)NC(=O)[C@H](CCCNC(=N)N)NC(=O)[C@H](C)NC(=O)[C@H](Cc1ccccc1)NC(=O)[C@H](CCC(=O)O)NC(=O)[C@H](CCC(=O)O)NC(=O)[C@H](CC(=O)O)NC(=O)[C@H](CC(=O)O)NC(=O)[C@H](Cc1c[nH]cn1)NC(=O)[C@H](Cc1c[nH]c2ccccc12)NC(=O)[C@H](C)NC(=O)[C@@H](N)CCSC)C(N)=O (some centres unmarked)
mean tissue distribution (C57BL/6 mouse female, stomach; dose not given, 3 h; relative to: total): 35.4%

CC(CCC(=O)NCC(=O)O)C1CCC2C3CCC4CC(OC5OC(C(=O)O)C(O)C(O)C5O)CCC4(C)C3CC(O)C12C (centres unmarked)
glucuronide to parent ratio (women, C/C genotype, plasma; dose not given, geometric mean): 2.72

CCCc1cc2cc(-n3nc(C)c4c3CC3(CCC3)CC4=O)cc(N3CCC(O)CC3)c2c(=O)[nH]1
aqueous solubility (shake flask; 24 h, pH 6.8, room temperature): 0.596 µM (≈ 0.283 µg/mL)

Cn1nc(NS(C)(=O)=O)c2c(Cl)ccc(-n3c([C@H](Cc4cc(F)cc(F)c4)NC(=O)Cn4nc(C(F)F)c5c4C(F)(F)[C@@H]4C[C@H]54)nc4nc(OCCC(F)(F)F)ccc4c3=O)c21
Cmax (human, plasma; oral, 25 mg single dose, powder in bottle, geometric mean): 26.9 ng/mL

CSCC[C@H](NC(=O)CNC(=O)[C@H](CCCCN)NC(=O)[C@H](CC(C)C)NC(=O)[C@@H]1CCCN1C(=O)[C@H](CO)NC(=O)[C@H](Cc1c[nH]cn1)NC(=O)[C@H](Cc1c[nH]c2ccccc12)NC(=O)[C@H](CCCNC(=N)N)NC(=O)[C@H](CC(C)C)NC(=O)[C@H](CCCNC(=N)N)NC(=O)[C@H](Cc1c[nH]c2ccccc12)NC(=O)[C@H](CS)NC(=O)CCCCCNC(=O)CN1CCN(CC(=O)O)CCN(CC(=O)O)CCN(CC(=O)O)CC1)C(=O)O [copper-64 labelled]
tissue uptake (PET imaging; BALB/c nude mice, kidney; intravenous, dose not given, 55 h, Huh-7 tumour-bearing): 2.74 ± 0.2 %ID/g

C#Cc1c(F)ccc2cc(O)cc(-c3ncc4c(N5CC6CCC(C5)N6C(=O)OC(C)OC(=O)C(C)(C)C)nc(OC[C@@]56CCCN5C[C@H](F)C6)nc4c3F)c12 (some centres unmarked)
t1/2 (item: prodrug; mouse whole blood; 1 µM): 0.24 h

O=C1NC2(CC2)COc2ncc(F)cc2[C@H]2COCCN2c2ccn3ncc1c3n2
creatine kinase activity (Sprague-Dawley rat, male, serum; oral, 10 mg/kg/day, 4 weeks daily, end of recovery period): 531 ± 261 U/L

CC[C@H](C)[C@H](NC(=O)[C@H](CCCCN)NC(=O)CNC(=O)[C@H](CC(C)C)NC(=O)[C@H](Cc1ccccc1)NC(=O)[C@H](CCCCN)NC(=O)[C@H](CO)NC(=O)[C@H](Cc1ccccc1)NC(=O)[C@H](Cc1c[nH]c2ccccc12)NC(=O)[C@H](CCC(N)=O)NC(=O)[C@@H](NC(=O)[C@H](Cc1ccccc1)NC(=O)CCCCCNC(=O)CN1CCN(CC(=O)O)CCN(CC(=O)O)CCN(CC(=O)O)CC1)C(C)C)C(=O)N[C@@H](CCC(=O)O)C(=O)N1CCC[C@H]1C(=O)N[C@@H](CC(=O)O)C(=O)N[C@H](C(=O)N[C@@H](CO)C(=O)N[C@@H](CCC(N)=O)C(=O)N[C@H](C(=O)N[C@@H](CCC(N)=O)C(=O)N[C@@H](CC(=O)O)C(=O)N1CCC[C@H]1C(=O)N[C@@H](CC(N)=O)C(=O)N[C@@H](CC(=O)O)C(=O)N[C@@H](CCC(N)=O)C(=O)N[C@@H](Cc1ccc(O)cc1)C(=O)N[C@@H](CCC(=O)O)C(=O)N1CCC[C@H]1C(=O)N[C@@H](Cc1ccccc1)C(=O)O)C(C)C)C(C)C [copper-64 labelled]
SUVmean (dynamic PET; mouse, CT26 tumour, untreated, tumour; intravenous, 100 µCi/mouse, 110 s): 1.04 SUV
